Experimental data collected from several papers.
Protocols differ between the studies behind these lines. ± gives the spread as reported.

| Structure (SMILES) | test system | conditions | AUC(0-inf) |
| --- | --- | --- | --- |
| CO[C@H]1C[C@@H]2CC[C@@H](C)[C@@](O)(O2)C(=O)C(=O)N2CCCC[C@H]2C(=O)O[C@H]([C@H](C)C[C@@H]2CC[C@@H](O)[C@H](OC)C2)CC(=O)[C@H](C)/C=C(\C)[C@@H](O)[C@@H](OC)C(=O)[C@H](C)C[C@H](C)/C=C/C=C/C=C/1C | human, whole blood | oral, 25 mg, added: grapefruit juice | 4540 ng·h/mL |
| C=CC(N)CCC(=O)O (stereo not drawn) | male Sprague-Dawley rat, plasma | oral, 10 mg/kg, formulation 10, added: Sar 200 mg/kg | 15900 ± 816 ng·h/mL |
| CCCOc1ccc([C@H]2CNC(=O)N2c2ccc3[nH]cnc3c2)cc1 | human, plasma | oral, 50 mg, single dose, fasted | 355 ng·h/mL |
| CC(C)=CCC[C@](C)(O[C@@H]1O[C@H](CO[C@@H]2O[C@H](CO)[C@@H](O)[C@H](O)[C@H]2O)[C@@H](O)[C@H](O)[C@H]1O)[C@H]1CC[C@]2(C)[C@@H]1[C@H](O)C[C@@H]1[C@@]3(C)CC[C@H](O[C@@H]4O[C@H](CO)[C@@H](O)[C@H](O)[C@H]4O[C@@H]4O[C@H](CO)[C@@H](O)[C@H](O)[C@H]4O)C(C)(C)[C@@H]3CC[C@]12C | Sprague Dawley rat, male, plasma | oral, 86 mg/kg, pure ginsenoside mixture in water | 68500 ± 17300 ng·h/mL |
| O=C1N=C(N2CCOCC2)CN1c1ccc(Cl)cc1 | beagle dog, female, plasma | oral, 30 mg/kg, tablets, fed | 74300 ng·h/mL |
| CC(C)=CCC[C@](C)(O[C@@H]1O[C@H](CO)[C@@H](O)[C@H](O)[C@H]1O)[C@H]1CC[C@]2(C)[C@@H]1[C@H](O)C[C@@H]1[C@@]3(C)CC[C@H](O)C(C)(C)[C@@H]3[C@@H](O[C@@H]3O[C@H](CO)[C@@H](O)[C@H](O)[C@H]3O)C[C@]12C | Sprague Dawley rat, male, plasma | oral, 25 mg/kg, in red ginseng extract | 4200 ± 1300 ng·h/mL |
| CCCC[C@H](NC(C)=O)C(=O)N[C@H]1CCC(=O)NC[C@@H](C(=O)N[C@@H](Cc2c[nH]c3ccccc23)C(N)=O)NC(=O)[C@H](CCCNC(=N)N)NC(=O)[C@@H](Cc2ccccc2)NC(=O)[C@H](Cc2c[nH]cn2)NC1=O | CD Sprague Dawley rat, male, plasma | subcutaneous, 5.0 mg/kg daily, day 1 | 4510 ng·h/mL |
| C#C[C@]1(CO)O[C@@H](n2cnc3c(N)nc(F)nc32)C[C@@H]1O | human, plasma | oral, 100 mg, single dose, fasted | 11.7 µM·h |
| CC(C)=CCC[C@](C)(O[C@@H]1O[C@H](CO)[C@@H](O)[C@H](O)[C@H]1O)[C@H]1CC[C@]2(C)[C@@H]1[C@H](O)C[C@@H]1[C@@]3(C)CC[C@H](O)C(C)(C)[C@@H]3[C@@H](O[C@@H]3O[C@H](CO)[C@@H](O)[C@H](O)[C@H]3O[C@@H]3O[C@@H](C)[C@H](O)[C@@H](O)[C@H]3O)C[C@]12C | Sprague Dawley rat, male, plasma | oral, 45 mg/kg, in frozen ginseng extract | 18300 ± 2700 ng·h/mL |

Some of these lines once more:
| Structure (SMILES) | test system | conditions | AUC(0-inf) |
| --- | --- | --- | --- |
| CC(C)=CCC[C@](C)(O[C@@H]1O[C@H](CO)[C@@H](O)[C@H](O)[C@H]1O)[C@H]1CC[C@]2(C)[C@@H]1[C@H](O)C[C@@H]1[C@@]3(C)CC[C@H](O)C(C)(C)[C@@H]3[C@@H](O[C@@H]3O[C@H](CO)[C@@H](O)[C@H](O)[C@H]3O)C[C@]12C | Sprague Dawley rat, male, plasma | oral, 25 mg/kg, in red ginseng extract | 4200 ± 1300 ng·h/mL |
